Measured values from different studies.
Compare with care: the assays were run in different laboratories. Numbers after ± are the reported error.
Organism: Klebsiella pneumoniae

`COc1ccc2c(c1)C=[N+]1C3CCCCC3[N+]3=Cc4c(ccc5ccc(OC)cc45)[O][Au-]13[O]2.F[P-](F)(F)(F)(F)F` (centres unmarked) has an MIC of > 20 µM (bacterial growth, broth microdilution; carbapenem-resistant clinical isolate; 24 h).
With `CC[C@H](C)[C@H](NC(=O)[C@@H](CCCNC(=N)N)NC(=O)[C@H](CCCNC(=N)N)NC(=O)[C@H](CCCNC(=N)N)NC(=O)[C@H](Cc1c[nH]c2ccccc12)NC(=O)[C@H](CCCNC(=N)N)NC(=O)[C@@H]1CCCN1C(=O)[C@H](CCCNC(=N)N)NC(=O)[C@@H]1CCCN1C(=O)[C@H](CC(C)C)NC(=O)[C@H](Cc1ccc(O)cc1)NC(=O)[C@@H]1CCCN1C(=O)[C@@H]1CCCN1C(=O)[C@H](CCCCN)NC(=O)[C@H](CC(=O)O)NC(=O)[C@@H](N)C(C)C)C(=O)N[C@@H](Cc1ccc(O)cc1)C(=O)N[C@@H](CC(N)=O)C(=O)N[C@H](CCCNC(=N)N)C(N)=O` the MIC was 2 µg/mL (broth microdilution; DSM 681; 18 h).
`CC[C@H](C)[C@H](NC(=O)[C@H](C)NC(=O)[C@@H](NC(=O)[C@H](CC(=O)O)NC(=O)[C@H](CCCCN)NC(=O)[C@H](CO)NC(=O)[C@@H](NC(=O)[C@H](CC(N)=O)NC(=O)[C@H](C)NC(=O)[C@@H](NC(=O)[C@H](CCC(=O)O)NC(=O)[C@H](CCCCN)NC(=O)[C@@H](NC(=O)[C@@H](NC(=O)[C@H](Cc1c[nH]cn1)NC(=O)[C@H](CCCCN)NC(=O)[C@@H](NC(=O)[C@H](CCCCN)NC(=O)[C@H](CCCCN)NC(=O)[C@@H](NC(=O)[C@H](CC(C)C)NC(=O)[C@H](CCCCN)NC(=O)[C@H](CC(N)=O)NC(=O)[C@H](Cc1ccccc1)NC(=O)[C@H](CCCNC(=N)N)NC(=O)[C@H](CCCCN)NC(=O)[C@H](CCCNC(=N)N)NC(=O)[C@H](Cc1ccccc1)NC(=O)CN)C(C)C)C(C)C)[C@@H](C)O)[C@@H](C)CC)[C@@H](C)O)C(C)C)C(C)C)C(=O)N[C@H](C(=O)N[C@@H](C)C(=O)NCC(=O)N[C@@H](CO)C(=O)NCC(=O)N[C@H](C(=O)N[C@@H](C)C(=O)N[C@H](C(=O)NCC(=O)N[C@@H](C)C(=O)N[C@@H](C)C(=O)N[C@@H](CCSC)C(N)=O)C(C)C)C(C)C)C(C)C` has an MIC of 4 µg/mL (broth microdilution; DSM 30104, CAMHB).
For `Cc1cc(N)c2cc(NC(=O)c3ccc4cc(C5CC5)ccc4c3)ccc2n1`, the MIC was > 100 µM (ATCC 13883).
`CC(C)C[C@H](NC(=O)[C@H](Cc1ccc(O)cc1)NC(=O)[C@@H]1CCCN1C(=O)[C@H](CCCNC(=N)N)NC(=O)[C@@H]1CCCN1C(=O)[C@H](CCCCN)NC(=O)[C@H](CC(=O)O)NC(=O)[C@@H]1CCCN1C(=O)[C@H](CCCNC(=N)N)NC(=O)C1(N)CCCCC1)C(=O)N1CCC[C@H]1C(=O)N[C@@H](CCCNC(=N)N)C(=O)N1CCC[C@H]1C(=O)N[C@@H](CCCNC(=N)N)C(=O)N1CCC[C@H]1C(=O)N1CCC[C@H]1C(=O)N[C@@H](CCCNC(=N)N)C(=O)N1CCC[C@H]1C(=O)N[C@H](C(=O)N[C@@H](CCCNC(=N)N)C(=O)N[C@@H](CSCc1ccc(CSC[C@H](NC(=O)[C@H](CCCNC(=N)N)NC(=O)[C@@H](NC(=O)[C@@H]2CCCN2C(=O)[C@H](CCCNC(=N)N)NC(=O)[C@@H]2CCCN2C(=O)[C@@H]2CCCN2C(=O)[C@H](CCCNC(=N)N)NC(=O)[C@@H]2CCCN2C(=O)[C@H](CCCNC(=N)N)NC(=O)[C@@H]2CCCN2C(=O)[C@H](CC(C)C)NC(=O)[C@H](Cc2ccc(O)cc2)NC(=O)[C@@H]2CCCN2C(=O)[C@H](CCCNC(=N)N)NC(=O)[C@@H]2CCCN2C(=O)[C@H](CCCCN)NC(=O)[C@H](CC(=O)O)NC(=O)[C@@H]2CCCN2C(=O)[C@H](CCCNC(=N)N)NC(=O)C2(N)CCCCC2)C(C)C)C(=O)NN)cc1)C(=O)NN)C(C)C` gave an MIC of 3.5 ± 0.6 µg/mL (bacterial growth; ATCC 13883, 100% Mueller-Hinton broth; 90 min, 37 °C, strain ATCC 13883).
For `COc1ccc2ccc3c(c2c1)C=[N+]1C2CCCCC2[N+]2=Cc4ccc(F)cc4[O][Au-]21[O]3.F[P-](F)(F)(F)(F)F` (centres unmarked), the MIC was 10 µM (bacterial growth, broth microdilution; carbapenem-resistant; 24 h).
`CCCCCCCCCCCCCC(=O)N[C@H](CCN)C(=O)N[C@@H]1C(=O)N[C@@H](CCN)C(=O)N[C@@H](CC(C)C)C(=O)N[C@@H](CCN)C(=O)N[C@H](Cc2ccccc2)C(=O)N[C@@H](CC(C)C)C(=O)N[C@@H](CCN)C(=O)N[C@H](Cc2ccc(O)cc2)C(=O)N[C@@H](C(C)C)C(=O)N[C@@H](CC(=O)O)C(=O)O[C@@H]1C` has an MIC of 4 µg/mL (broth microdilution; BNCC 186113).
`CC(C)[C@@H]1NC(=O)[C@@H]2CCCN2C(=O)[C@@H](C)NC(=O)[C@H](CO)NC(=O)[C@H](C)NC(=O)[C@H](C(C)(C)C)NC(=O)[C@H](CCO)NC(=O)[C@H](Cc2c[nH]c3ccccc23)NC(=O)[C@H](CCO)NC(=O)[C@@H](CCN)NC(=O)[C@H](CCC(N)=O)NC(=O)[C@H](CCN)NC(=O)[C@H](Cc2ccc(O)cc2)NC(=O)[C@H]([C@@H](C)O)NC1=O` gave an MIC of > 64 µg/mL (broth microdilution; ATCC 11228, CAMHB with polysorbate-80; 16 h).
`CC(C)[C@H](NC(=O)[C@H](CCCCN)NC(=O)[C@H](CCCNC(=N)N)NC(=O)CNC(=O)[C@H](C)NC(=O)[C@H](CC(N)=O)NC(=O)[C@H](CCCNC(=N)N)NC(=O)[C@@H](NC(=O)[C@H](CCCCN)NC(=O)[C@H](CC(=O)O)NC(=O)[C@@H](NC(=O)[C@@H](NC(=O)[C@H](CCCNC(=N)N)NC(=O)[C@H](CCCNC(=N)N)NC(=O)[C@H](Cc1c[nH]c2ccccc12)NC(=O)[C@H](Cc1c[nH]c2ccccc12)NC(=O)CN)[C@@H](C)O)C(C)C)C(C)C)C(=O)O` has an MIC of > 256 µg/mL (ATCC 10031; 18 h, 37 °C).
`Oc1ccc(Cl)cc1-c1nc2c(C(F)(F)F)cc(C(F)(F)F)cc2[nH]1` gave an MIC of > 200 µM (B9).
For `COc1ccc2ccc3c(c2c1)C=[N+]1C2CCCCC2[N+]2=Cc4c(C)cccc4[O][Au-]21[O]3.F[P-](F)(F)(F)(F)F` (centres unmarked), the MIC was 10 µM (bacterial growth, broth microdilution; carbapenem-resistant; 24 h).
The MIC of `CC(C)C[C@H](NC(=O)CN)C(=O)N[C@@H](CC(C)C)C(=O)N[C@@H](CCCCN)C(=O)N[C@@H](CC(C)C)C(=O)N[C@@H](CC(C)C)C(=O)N[C@@H](CCCCN)C(=O)N[C@@H](CCCCN)C(=O)N[C@@H](CC(C)C)C(=O)N[C@@H](CC(C)C)C(=O)N[C@@H](CCCCN)C(=O)N[C@@H](CC(C)C)C(=O)N[C@@H](CC(C)C)C(=O)N[C@@H](CCCCN)C(N)=O` is reported as > 19 µM (ATCC 700603, CAMHB; 18 h, 37 °C).
With `CN[C@H](CC(C)C)C(=O)N[C@H]1C(=O)N[C@@H](CC(N)=O)C(=O)N[C@H]2C(=O)N[C@H]3C(=O)N[C@H](C(=O)N[C@H](C(=O)NCc4cn(CCOCCOCCOCCC(=O)N[C@H](C(=O)N[C@@H](CCN)C(=O)N[C@H]5CCNC(=O)[C@H]([C@@H](C)O)NC(=O)[C@H](CCN)NC(=O)[C@H](CCN)NC(=O)[C@H](CC(C)C)NC(=O)[C@@H](CC(C)C)NC(=O)[C@H](CCN)NC5=O)[C@@H](C)O)nn4)c4cc(O)cc(O)c4-c4cc3ccc4O)[C@H](O)c3ccc(c(Cl)c3)Oc3cc2cc(c3O[C@@H]2O[C@H](CO)[C@@H](O)[C@H](O)[C@H]2O[C@H]2C[C@](C)(N)[C@H](O)[C@H](C)O2)Oc2ccc(cc2Cl)[C@H]1O` the MIC was 64 µg/mL (broth microdilution; ATCC 27736; 18 to 20 h, 37 °C, 0.002% polysorbate 80).
`COc1ccc2c(c1)[O][Au-]13[O]c4ccc5ccc(OC)cc5c4C=[N+]1C1CCCCC1[N+]3=C2.F[P-](F)(F)(F)(F)F` (centres unmarked) gave an MIC of > 20 µM (bacterial growth, broth microdilution; carbapenem-resistant; 24 h).
